Results pooled from the literature.
Protocols differ between the studies behind these lines. Numbers after ± are the reported error.
Organism: Plasmodium falciparum

SMILES | read-out | method | cell line | strain | sample | time | EC50 [nM]
CC[C@@](N)(c1cnc(C(F)(F)F)c(Cl)c1)c1c2ncn(C3CC3)c(=O)c2nn1C | parasite growth |  |  |  |  |  | 6.4
Cc1ccc(-c2csc(CNC(=O)[C@H]3CCCN(C(=O)COCC(F)(F)F)C3)n2)cn1 | parasite growth | SYBR Green |  | 3D7 | asexual blood stage | 72 h | 3.9 ± 0.53
COc1ncc(Nc2ccnc3ccc(-c4ccc(S(=O)(=O)N5CCOCC5)cc4)cc23)cn1 | parasite growth | SYBR Green |  | D6 |  |  | 760
CCN(c1ccc(C)cc1)c1ccc(NC(=O)CN(C)c2ccccc2N2CCCC2=O)cn1 | ring-stage invasion | nanoluciferase |  | 3D7 NanoLuc late schizonts |  | 4 h pulse | 5
N#Cc1cnc(Nc2ccnc3ccc(-c4ccc(S(=O)(=O)N5CCOCC5)cc4)cc23)cn1 | parasite growth | SYBR Green |  | D6 |  |  | 550
CCn1cc(C2CC2)c2c(CN3CCC(C)(F)CC3)n(C)nc2c1=O | parasite growth |  |  | 3D7 |  |  | 20
CCOCCN1CCC[C@H](C(=O)NCc2nc(-c3ccccc3)cs2)C1 |  | SYBR Green growth | asexual blood-stage parasites | 3D7 |  | 72 h | > 5000
Cn1nc2c(=O)n(CCC3CC3)ccc2c1Cc1ccc(C(F)(F)F)nc1 | parasite growth |  |  | 3D7 |  |  | 12600
Cc1cc(Nc2ccnc3ccc(-c4ccc(S(=O)(=O)N5CCOCC5)cc4)cc23)on1 | parasite growth | SYBR Green |  | W2 |  |  | 2300
COCC(=O)N1CCCC(S(=O)(=O)NCc2nc(-c3ccccc3)cs2)C1 (racemic) |  | SYBR Green growth | asexual blood-stage parasites | 3D7 |  | 72 h | > 5000
CCn1cc(C)c2c([C@H](O)c3cnc(C(F)(F)F)c(Cl)c3)n(C)nc2c1=O | parasite growth |  |  | 3D7 |  |  | 10
O=S(=O)(c1ccc(-c2ccc3nccc(Nc4ccccn4)c3c2)cc1)N1CCOCC1 | parasite growth | SYBR Green |  | W2 |  |  | 1500
O=C(NCc1nc(-c2ccccc2)cs1)[C@H]1CCCN(C(=O)CO)C1 |  | SYBR Green growth | asexual blood-stage parasites | 3D7 |  | 72 h | 1200 ± 400
